{"data": "Published values from different studies", "BRD4": "Bromodomain-containing protein 4 (BRD4, Homo sapiens, UniProt O60885)", "BRD4 BD1": "Bromodomain-containing protein 4, BD1 (BRD4, Homo sapiens, UniProt O60885)", "UCHL1": "Ubiquitin carboxyl-terminal hydrolase isozyme L1 (UCHL1, Homo sapiens, UniProt P09936)", "BRD4 BD2": "Bromodomain-containing protein 4, BD2 (BRD4, Homo sapiens, UniProt O60885)", "note": "Compare with care: the assays were run in different laboratories. ± gives the spread as reported.", "chain of UniProt P09936 (whole entry, looked up)": "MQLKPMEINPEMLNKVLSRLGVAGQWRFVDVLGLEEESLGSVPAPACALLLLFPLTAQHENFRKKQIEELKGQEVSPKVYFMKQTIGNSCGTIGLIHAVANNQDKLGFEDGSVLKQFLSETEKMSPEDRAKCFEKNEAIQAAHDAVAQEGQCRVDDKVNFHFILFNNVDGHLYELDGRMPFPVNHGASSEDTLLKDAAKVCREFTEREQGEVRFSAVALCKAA"}
{"SMILES": "CC(=O)Nc1ccc(O)cc1", "target or system": "BRD4", "test": "19F NMR, refers to: tyrosine 118", "conditions": "375 µM", "how to read": "baseline: free protein", "endpoint": "chemical shift change", "result": "-0.05 ppm"}
{"SMILES": "Cn1cc(C(=O)Nc2cccc(C(=O)O)c2)ccc1=O", "target or system": "BRD4 BD1", "test": "binding, BROMOscan competition binding", "how to read": "baseline: Kd CBP over Kd BRD4 bromodomain 1", "endpoint": "selectivity ratio", "result": 0.1}
{"SMILES": "CCOC(=O)c1c(NC(=O)Cn2cnc([N+](=O)[O-])n2)sc2c1CCC(C)C2 (stereo not drawn)", "target or system": "Trypanosoma cruzi", "test": "reporter translation, Renilla luciferase mRNA translation", "test system": "cell-free extract", "conditions": "40 µM", "how to read": "baseline: DMSO", "endpoint": "inhibition", "result": "5.6%"}
{"SMILES": "O=C(CCl)Nc1nnc(-c2ccccc2Cl)s1", "target or system": "UCHL1", "test": "covalent, intact protein LC-MS", "conditions": "12.5 µM", "endpoint": "labelling", "result": "21.1%"}
{"SMILES": "CC(=O)N[C@H](C(=O)N1C[C@H](O)C[C@H]1C(=O)NCc1ccc(-c2scnc2C)cc1)C(C)(C)SCCCCCCNC(=O)C[C@@H]1N=C(c2ccc(Cl)cc2)c2c(sc(C)c2C)-n2c(C)nnc21", "target or system": "BRD4 BD2", "test": "ITC", "conditions": "25 °C, binary", "endpoint": "−TΔS", "result": "0 ± 1 kcal/mol"}
{"SMILES": "Cn1nnc2ccc(NC(=O)c3cccc(C(=O)O)c3)cc21", "target or system": "BRD4 BD1", "test": "binding, BROMOscan competition binding", "how to read": "baseline: Kd CBP over Kd BRD4 bromodomain 1", "endpoint": "selectivity ratio", "result": 2.5}
{"SMILES": "COc1cc(-c2cc(C(C)=O)n3ccccc23)c(OC)cc1Cn1ccnc1", "target or system": "BRD4 BD2", "conditions": "1 µM", "endpoint": "inhibition", "result": "-1.54%"}
{"SMILES": "COc1ccc2c(-c3nc(-c4c(C)[nH]c5ccc(OC)cc45)cs3)c[nH]c2c1", "target or system": "BRD4", "test": "thermal shift", "conditions": "25 µM", "how to read": "higher = stronger binding", "endpoint": "ΔTm", "result": "12.5 °C"}
{"SMILES": "Cc1cc2c(cc1N1C(=O)c3cccc4c(Cl)ccc(c34)C1=O)n(C)c(=O)n2C", "target or system": "BRD4 BD2", "conditions": "10 µM", "endpoint": "delta Tm", "result": "1.3 °C"}
{"SMILES": "CCn1c2c(c(=O)[nH]c1=O)C1C(=C(C)N2)C(=O)NCc2ccccc2OCCCOc2ccccc21 (stereo not drawn)", "target or system": "BRD4 BD1", "test": "fluorescence polarization", "conditions": "concentration not given", "endpoint": "binding affinity", "result": "inactive"}
{"SMILES": "CCc1cnn2c(NCc3ccc[n+]([O-])c3)cc(N3CCCC[C@H]3CCO)nc12", "target or system": "BRD4", "test": "19F NMR, refers to: tyrosine 97", "conditions": "47 µM", "how to read": "baseline: free protein", "endpoint": "chemical shift change", "result": "-0.183 ppm"}
{"SMILES": "CCOC(=O)C1CCCN(Cc2ccc(-c3ccccc3)cc2)C1 (stereo not drawn)", "target or system": "Trypanosoma cruzi", "test": "reporter translation, Renilla luciferase mRNA translation", "test system": "cell-free extract", "conditions": "40 µM", "how to read": "baseline: DMSO", "endpoint": "inhibition", "result": "-11.6%"}
{"SMILES": "COc1cc(-c2cc(C(C)=O)n3ccccc23)cc(OC)c1Cn1ccnc1", "target or system": "BRD4 BD1", "conditions": "1 µM", "endpoint": "inhibition", "result": "2.15%"}
{"SMILES": "Cc1[nH]c2ccccc2c1-c1csc(-c2c[nH]c3ccccc23)n1", "target or system": "BRD4", "test": "thermal shift", "conditions": "25 µM", "how to read": "higher = stronger binding", "endpoint": "ΔTm", "result": "9.5 °C"}
{"SMILES": "CNC(=O)C(C#N)=Cc1c(Oc2ccc(Cl)cc2)nc2ccccn2c1=O", "target or system": "UCHL1", "test": "covalent, intact protein LC-MS", "conditions": "12.5 µM", "endpoint": "labelling", "result": "12.3%"}
{"note": "Repeated from above:"}
{"SMILES": "CC(=O)N[C@H](C(=O)N1C[C@H](O)C[C@H]1C(=O)NCc1ccc(-c2scnc2C)cc1)C(C)(C)SCCCCCCNC(=O)C[C@@H]1N=C(c2ccc(Cl)cc2)c2c(sc(C)c2C)-n2c(C)nnc21", "target or system": "BRD4 BD2", "test": "ITC", "conditions": "25 °C, binary", "endpoint": "−TΔS", "result": "0 ± 1 kcal/mol"}
